Experimental data of several laboratories.
Compare with care: the assays were run in different laboratories. ± gives the spread as reported. ≈ marks a conversion by molar mass, not a printed value.

O=C1CCc2cc(OC[C@H](O)CN3CCN(c4ccc(C(F)(F)F)cc4)CC3)ccc2N1
clearance (human, plasma; intravenous, 50 mg, multiple doses, once daily, steady state): 200 mL/min

Cc1cc(Nc2ncc(Cl)c(Nc3ccccc3S(=O)(=O)C(C)C)n2)c(OC(C)C)cc1C1CCNCC1
AUC(tau) at steady state (measured: total drug; human, plasma; oral, 450 mg/day with food, after daily dose 9): 22.5 µM·h

O=C(CCCN1CC=C(n2c(=O)[nH]c3ccccc32)CC1)c1ccc(F)cc1
QTc change (male Hartley guinea pig, anaesthetized; intravenous infusion, 0.03 mg/kg, 10 min infusion; baseline: baseline): 2.1 ± 3.2%

CCOc1ccc(Cc2cc([C@@H]3S[C@H](CO)[C@@H](O)[C@H](O)[C@H]3O)c(OC)cc2C)cc1
Vd/F (human; oral, 10 mg/day, day 1, before breakfast): 40.1 ± 8.36 L

Cc1cccc(C)c1OCC(=O)N[C@@H](Cc1ccccc1)[C@@H](O)C[C@H](Cc1ccccc1)NC(=O)[C@H](C(C)C)N1CCCNC1=O
absorptive clearance per length (rabbit, duodenum, in situ perfusion; 30 µg/mL): 0.0049 mL/min/cm

O=C(O)CNC(=O)c1ccco1
total plasma concentration ratio (human hemodialysis patients, plasma; pre-treatment; baseline: hemodialysis over normal subjects): 64

OCCN(CCO)c1nc(N2CCCCC2)c2nc(N(CCO)CCO)nc(N3CCCCC3)c2n1
thermodynamic solubility (shake-flask; PEG400; 37 °C): 16.9 ± 0.8 mg/g

CCCC[C@H](NC(=O)CN1CCN(CC(=O)O)CCN(CC(=O)O)CCN(CC(=O)O)CC1)C(=O)N[C@H]1CC(=O)NCCCC[C@@H](C(N)=O)NC(=O)[C@H](Cc2c[nH]c3ccccc23)NC(=O)[C@H](CCCNC(=N)N)NC(=O)[C@@H](Cc2ccccc2)NC(=O)[C@H](Cc2c[nH]cn2)NC1=O [indium-111 labelled]
renal uptake (B16/F1 melanoma C57 mice, kidney; 4 h; baseline: 99mTc(CO)3-pz-βAla-Nle-cyclo[Asp-His-D-Phe-Arg-Trp-Lys]-NH2): 31.1%

C[C@]12C=CC(=O)C=C1CC[C@@H]1[C@@H]2[C@@H](O)C[C@@]2(C)[C@H]1C[C@H]1O[C@@H](C3CCCCC3)O[C@]12C(=O)CO
AUC(tau) (children with asthma, serum; inhaled, 160 µg ciclesonide, day 7, steady state, MDI with spacer): 0.663 ng·h/mL

O=C(CCCN1CCC(O)(c2ccc(Cl)cc2)CC1)c1ccc(F)cc1
thermodynamic solubility (shake-flask; Captex 355; 37 °C): 2.42 ± 0.08 mg/g

CS(=O)(=O)OC[C@H](O)[C@@H]1CO1
concentration (Wistar rat, male, plasma; intraperitoneal, 500 mg/kg of treosulfan, 4 h): 8 µM

O=C(Nc1ccc2sc(-c3ccc(F)c(F)c3)nc2c1)N1C[C@@H](F)[C@H](F)C1
brain concentration (mice, brain; intraperitoneal, 5 mg/kg, 1 h): > 16 µM

CNc1nc(Nc2ccc(-n3cnc(C)n3)c(OC)c2)nc2c1CC[C@H]2c1ccc(F)cc1
AUC(0-t) (human, plasma; oral, 200 mg, multiple doses, once daily): 31400 ng·h/mL

CNCc1ccc(-c2[nH]c3cc(F)cc4c3c2CCNC4=O)cc1
half-life (human patients, plasma; oral, 160 mg once daily, day 15, steady state, arithmetic mean): 33.6 h

COc1cc(/C=C/c2ccc(N)cc2)cc(OC)c1
concentration (rat, serum; oral, 40 mg/kg daily for three days, 24 h, total): 640 ± 34 ng/mL

Cn1c(-c2ccc(C(N)=O)cc2F)nnc1C(C)(C)Oc1c(F)cc(Cl)cc1F
AUC(0-inf) range (young non-Japanese subjects, plasma; oral, 50 mg single dose, day 1): 4950 to 19800 ng·h/mL

O=C(c1ccc(OCCN2CCCCC2)cc1)c1c(-c2ccc(O)cc2)sc2cc(O)ccc12
AUC(0-96 h) (healthy humans, plasma; oral, 60 mg, with: acute green tea): 0.0085 µM·h

Cc1cccc(C)c1N(CC(=O)Nc1ccc(-c2ncon2)cc1)C(=O)C1CCS(=O)(=O)CC1
urinary excretion unchanged (human, urine; oral, 200 mg; baseline: dose): 10.5%

Oc1ccc2c3c(cnc2c1)-c1ccc(C(F)(F)F)cc1O[C@@H]3c1ccc(OCCN2CC(CF)C2)cc1
urinary radioactivity excretion (human, healthy female, urine; oral, 400 mg): 0.278%

CCCC[C@H](NC(C)=O)C(=O)N[C@H]1CCC(=O)NC[C@@H](C(=O)N[C@@H](Cc2c[nH]c3ccccc23)C(N)=O)NC(=O)[C@H](CCCNC(=N)N)NC(=O)[C@@H](Cc2ccccc2)NC(=O)[C@H](Cc2c[nH]cn2)NC1=O
AUC(0-t) (CD Sprague-Dawley rat, female, plasma; subcutaneous, 25.0 mg/kg/day, day 14, truncated curve, 3 points): 1710 ng·h/mL

[2H]C([2H])([2H])Oc1cc2c(cc1OC([2H])([2H])[2H])C1CC(=O)C(CC(C)C)CN1CC2 (stereo not shown)
dose-normalized AUC(0-t) (measured: deuterated α-HTBZ; healthy human volunteers, plasma; oral, 24 mg single dose, standard meal): 16.2 ng·h/mL

CCSCc1ccc2c(c1)c1c3c(c4c5cc(CSCC)ccc5n5c4c1n2[C@H]1C[C@](O)(C(=O)OC)[C@]5(C)O1)CNC3=O
AUC(tau) (HIV-infected patients, plasma; oral, 50 mg twice daily, day 21, steady state, with: atazanavir/ritonavir 300/100 mg once daily): 3560 ng·h/mL

CNC(=O)c1cc(Oc2ccc(NC(=O)Nc3ccc(Cl)c(C(F)(F)F)c3)cc2)ccn1
QTc change from baseline (Holter ECG; human; oral, 400 mg twice daily, 1 cycles): 50 ms

O=C(CCCN1CCC(O)(c2ccc(Cl)cc2)CC1)c1ccc(F)cc1
QTc change (male Hartley guinea pig, anaesthetized; intravenous infusion, 0.01 mg/kg, 10 min infusion; baseline: baseline): 1.5 ± 0.8%

Cc1nc2cccc(OCC(C)(C)C(=O)NC(C)C)c2c(N)c1C(=O)O
Tmax (female Sprague-Dawley rat, plasma; oral gavage, 10 mg/kg, day 7): 0.33 h

CC(C)C[C@H](N)C(=O)N1CCC[C@@H](NCC(=O)N2CCC[C@H]2C(N)=O)C1
pKa2 (capillary electrophoresis-MS; water): 8.46

CC1=C2C[C@H]3[C@@H](CC[C@@H]4C[C@H](NS(C)(=O)=O)CC[C@@]43C)[C@@H]2CC[C@@]2(C1)O[C@@H]1C[C@H](C)CN[C@H]1[C@H]2C
AUC(0-24) (patients, plasma; oral, 40 mg daily, day 22, cycle 1): 800 ng·h/mL

CCCCCCCCC[C@H](O)CC(=O)CCc1ccc(O)c(OC)c1
recovery (rat, small intestine site 4 contents; oral, dose not given, 4 h, no β-glucuronidase treatment; baseline: ingested amount): 3.51%

CCN1CCN(Cc2ccc(-c3cc4c(N[C@H](C)c5ccccc5)ncnc4[nH]3)cc2)CC1
tumour concentration (human, tumour tissue; 250 mg, 12 h after dose): 1280 ng/mL

CC(C)Cc1ccc(C(C)C(=O)O)cc1 (racemic)
skin flux (pig, skin; 0.01 g/cm^3, pH 7.4, 32 °C, donor 70% ethanol, 0.5 mm dermatomed): 13.6 µg/cm2/h

O=C(Nc1ccc([N+](=O)[O-])cc1Cl)c1cc(Cl)ccc1O
thermodynamic solubility (shake-flask; Captex 355; 37 °C): 2.82 ± 0.11 mg/g

C[C@H](Oc1ccc(-c2nc(-c3ccc4[nH]cnc4c3)no2)cc1C(F)(F)F)C(F)(F)F
plasma concentration (cynomolgus monkey, aneurysm model, plasma; 0.1 mg/kg once daily, 8 h post-dose, 4 weeks dosing): 0.022 ± 0.0038 µM

O=C1N=C(N2CCOCC2)CN1c1ccc(Cl)cc1
apparent volume of distribution (Vz/F) (beagle dog, female; oral, 30 mg/kg, tablets, fed): 1.07 L/kg

Cc1c(Cl)cccc1Nc1ccccc1C(=O)O
thermodynamic solubility (shake-flask; soybean oil; 37 °C): 3.81 ± 0.23 mg/g

NS(=O)(=O)c1ccc(NC(=O)/C=C\c2ccc(O)c(O)c2)cc1
log P (n-octanol/PBS; pH 7.4): 0.0938

CCOc1nc2cccc(C(=O)O)c2n1Cc1ccc(-c2ccccc2-c2nnn[nH]2)cc1
thermodynamic solubility (shake-flask; Captex 355; 37 °C): 0.01 mg/g

O=C(NC1CCNCC1)c1[nH]ncc1NC(=O)c1c(Cl)cccc1Cl
thermodynamic solubility (shake flask; water; pH 6.5): 1520 µg/mL (≈ 3.99 mM)
